Results gathered from unrelated publications.
Lines come from different studies, so protocols differ. Several values in a cell are separate wells, animals, samples, runs or records. ± marks the error that the study gave.

Structure (SMILES) = O=C1CCc2ccc(OCCCCN3CCN(c4cccc(Cl)c4Cl)CC3)cc2N1; test system = patients CYP2D6 UM; setting = 3 months; quantity = stopping or switching; value = 30%
Structure (SMILES) = O=C(O)/C=C/c1ccc(Cn2ccnc2)cc1; test system = rat, MCAO/R model, plasma; setting = intravenous, dose not given, 4 h; quantity = APTT; value = 23.3 s
Structure (SMILES) = C[C@H](Oc1ccc(Br)cc1-c1ccon1)C(=O)O; test = last response peak; test system = human, tibialis anterior muscle; setting = 200 mg, 15 Hz, single ascending dose; quantity = difference from placebo; value = -5.93%
Structure (SMILES) = c1ccc(-c2n[nH]cc2-c2ccnc3ccccc23)nc1; test = kinase binding, competitor, MIB/MS competition, refers to: RTK1; test system = Candida albicans cell lysate; setting = 100 nM; scale = relative to: DMSO; quantity = log2 fold change; value = 1.08
Structure (SMILES) = CN(C(=O)n1cnc(-c2ccc[n+]([O-])c2)c1)C1CCCCC1; test = refers to: PEA; test system = human, plasma; setting = 10 mg once daily, day 10; quantity = AUC(0-tau); value = 129 ng·h/mL
Structure (SMILES) = CC(C)NCC(O)c1ccc(O)c(O)c1 (stereo not drawn); test system = ventricular cardiomyocytes, C57BL/6 mouse; setting = dose not given, 0.284 s; quantity = sarcomere length; value = 1.71 µm
Structure (SMILES) = CC(C)[C@H](C(=O)Nc1ccc(C(=O)NO)cc1)c1ccccc1; test = volumetric MRI; test system = human, right vagal schwannoma; setting = dose not given, day 835; quantity = tumour volume; value = 9.3 cm3
Structure (SMILES) = CC(c1cc2ccccc2s1)N(O)C(N)=O (stereo not drawn); test system = human blood; setting = 3 µM, added: A23187; quantity = LTB4 isomers level; value = 115 ± 41 pg/mL
Structure (SMILES) = NC(=O)c1cnc2[nH]ccc2c1N[C@@H]1[C@@H]2CC3C[C@H]1C[C@@](O)(C3)C2; test = flow cytometry; test system = Japanese healthy men, blood; setting = oral, 100 mg twice daily, 72 h after day 7 dose; scale = relative to: baseline; quantity = CD8+ central memory change; value = -0.33%
Structure (SMILES) = OC[C@H]1O[C@@H](c2ccc(F)c(Cc3cc4ccccc4s3)c2)[C@H](O)[C@@H](O)[C@@H]1O; test = continuous glucose monitoring; test system = Japanese type 1 diabetes patients; setting = 100 mg/day, day 14; scale = relative to: baseline; quantity = time glucose at most 70 mg/dL; value = -0.15 ± 4.97 % change
Structure (SMILES) = Cc1n[nH]c2ccc(-c3cc(OC[C@@H](N)Cc4ccccc4)cnc3-c3ccoc3)cc12; test = kinase binding, competitor, MIB/MS competition, refers to: KIN3; test system = Candida albicans cell lysate; setting = 100 nM; scale = relative to: DMSO; quantity = log2 fold change; value = 0.0483
Structure (SMILES) = [Cl-].[Cl-].[Pt+2].[Ru+2].c1ccc(-c2nccnc2-c2ccccn2)nc1.c1cnc2c(c1)ccc1cccnc12.c1cnc2c(c1)ccc1cccnc12; test = chloride substitution, UV-vis kinetics; test system = aqueous buffer; setting = concentration not given, pH 7.2, second substitution step, added: L-methionine; quantity = negative activation entropy; value = 194 ± 16 J/(mol·K)
Structure (SMILES) = N#Cc1ccc2c(c1)[C@H]1CCCN(C(=O)c3ccc4[nH]cnc4c3)[C@H]1C2; test system = human, urine; setting = 240 mg, 336 h, day 14 over day -1; scale = relative to: placebo and baseline; quantity = total urinary corticosteroids; value = 104 % change
Structure (SMILES) = CC(=O)Oc1cc2c(s1)CCN(C(C(=O)C1CC1)c1ccccc1F)C2 (stereo not drawn); test = light transmittance aggregometry; test system = human patients, platelet-rich plasma; setting = dose not given, 1 h, added: ADP 20 µM; scale = relative to: patients; quantity = patients with IPA above 80%; value = 0%
Structure (SMILES) = COc1ccc(-c2ccc3c(N4CCOC[C@@H]4C)nc(N4CCOC[C@@H]4C)nc3n2)cc1COC(=O)CCOCCOCCOCCONC(=O)c1ccc(F)c(F)c1Nc1ccc(I)cc1F; test = flow cytometry; test system = JAK2V617F myelofibrosis mouse, splenocytes; setting = 40 mg/kg daily, seven days; quantity = pERK1/2 level; value = decreased
Structure (SMILES) = Cc1c(NC(=O)c2cccnc2)c(=O)n(-c2ccccc2)n1C; test = echocardiography; test system = Dmd C3333Y mouse; setting = dose not given; quantity = ejection fraction; value = 56.4% and 58.2% and 59.1% and 52.5% and 55.7%
Structure (SMILES) = C[C@H]1O[C@@H](O[C@H]2CC[C@@]3(C)[C@@H](CC[C@]4(C)[C@@H]3C=C[C@]35OC[C@@]6(CCC(C)(C)C[C@H]63)[C@@H](O)C[C@]54C)[C@]2(C)CO)[C@H](O)[C@@H](O[C@@H]2O[C@H](CO)[C@@H](O)[C@H](O)[C@H]2O)[C@H]1O; test system = pair-fed control mice, no ethanol, plasma; setting = oral, 15 mg/kg/day; quantity = ALT activity; value = 22.7 U/L and 21 U/L and 28.9 U/L and 20.9 U/L and 20.4 U/L
Structure (SMILES) = COc1cc(F)c([C@@H]2CNC(=O)[C@H]2NC(=O)Nc2ccccc2)c(F)c1; test = LV haemodynamics; test system = rat, myocardial ischaemia-reperfusion; setting = 1 mg/kg, 1008 h, 6 weeks post-injury; quantity = cardiac output; value = 59 ± 16 mL/min

For quick reference, copied from above:
Structure (SMILES) = C[C@H](Oc1ccc(Br)cc1-c1ccon1)C(=O)O; test = last response peak; test system = human, tibialis anterior muscle; setting = 200 mg, 15 Hz, single ascending dose; quantity = difference from placebo; value = -5.93%
Structure (SMILES) = c1ccc(-c2n[nH]cc2-c2ccnc3ccccc23)nc1; test = kinase binding, competitor, MIB/MS competition, refers to: RTK1; test system = Candida albicans cell lysate; setting = 100 nM; scale = relative to: DMSO; quantity = log2 fold change; value = 1.08
